Experimental data from different studies.
± marks the error that the study gave.
NECTIN4: NECTIN4 32-349 (Homo sapiens, UniProt Q96NY8)
Sequence of UniProt Q96NY8 (whole entry, looked up): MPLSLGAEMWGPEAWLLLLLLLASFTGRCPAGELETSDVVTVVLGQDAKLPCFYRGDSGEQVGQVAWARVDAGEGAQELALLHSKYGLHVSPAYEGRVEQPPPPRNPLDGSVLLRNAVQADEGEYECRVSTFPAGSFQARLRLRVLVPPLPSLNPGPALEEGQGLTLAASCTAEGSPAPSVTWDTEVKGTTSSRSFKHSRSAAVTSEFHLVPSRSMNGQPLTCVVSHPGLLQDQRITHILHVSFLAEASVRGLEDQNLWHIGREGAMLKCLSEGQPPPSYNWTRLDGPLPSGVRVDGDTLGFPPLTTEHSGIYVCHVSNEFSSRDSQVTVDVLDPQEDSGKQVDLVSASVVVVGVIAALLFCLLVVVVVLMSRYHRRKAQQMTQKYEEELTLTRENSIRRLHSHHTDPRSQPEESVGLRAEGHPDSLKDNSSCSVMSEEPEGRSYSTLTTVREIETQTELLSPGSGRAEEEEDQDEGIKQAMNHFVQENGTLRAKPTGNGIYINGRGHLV
T1: RAMP2/CALCR extracellular domain fusion 43-143 (Homo sapiens); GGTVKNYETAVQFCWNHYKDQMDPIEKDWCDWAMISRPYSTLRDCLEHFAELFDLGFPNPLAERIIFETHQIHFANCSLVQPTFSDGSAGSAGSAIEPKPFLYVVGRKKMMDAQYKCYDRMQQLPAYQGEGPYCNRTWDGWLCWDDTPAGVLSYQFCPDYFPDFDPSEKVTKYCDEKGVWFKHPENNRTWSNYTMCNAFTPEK
B1: CENPF 1-385 (Homo sapiens, UniProt P49454); sequence looked up; chain MSWALEEWKEGLPTRALQKIQELEGQLDKLKKEKQQRQFQLDSLEAALQKQKQKVENEKTEGTNLKRENQRLMEICESLEKTKQKISHELQVKESQVNFQEGQLNSGKKQIEKLEQELKRCKSELERSQQAAQSADVSLNPCNTPQKIFTTPLTPSQYYSGSKYEDLKEKYNKEVEERKRLEAEVKALQAKKASQTLPQATMNHRDIARHQASSSVFSWQQEKTPSHLSSNSQRTPIRRDFSASYFSGEQEVTPSRSTLQIGKRDANSSFFDNSSSPHLLDQLKAQNQELRNKINELELRLQGHEKEMKGQVNKFQELQLQLEKAKVELIEKEKVLNKCRDELVRTTAQYDQASTKYTALEQKLKKLTEDLSCQRQNAESARCSL
B2: CCL3 mature (UniProt P10147); 125I label; chain SLAADTPTACCFSYTSRQIPQNFIADYFETSSQCSKPGVIFLTKRSRQVCADPSEEWVQKYVSDLELSA
B3: RSPO4/IgG1 Fc RSPO4 32-137 Q65R/N297Q; CPT2 conjugated via azide click; chain GGNCTGCIICSEENGCSTCQQRLFLFIRREGIRRYGKCLHDCPPGYFGIRGQEVNRCKKCGATCESCFSQDFCIRCKRQFYLYKGKCLPTCPPGTLAHQNTRECQGGGGGSGGGGSGGGGS
B4: DLL4 27-400 G28S/F107L/I143F/H194Y/L206P/N257P/T271L/F280Y/S301R/Q305P (Homo sapiens, UniProt Q9NR61); chain SSVFQLQLQEFINERGVLASGRPCEPGCRTFFRVCLKHFQAVVSPGPCTFGTVSTPVLGTNSFAVRDDSSGGGRNPLQLPLNFTWPGTFSLIIEAWHAPGDDLRPEALPPDALISKFAIQGSLAVGQNWLLDEQTSTLTRLRYSYRVICSDNYYGDNCSRLCKKRNDYFGHYVCQPDGNPSCLPGWTGEYCQQPICLSGCHEQNGYCSKPAECLCRPGWQGRLCNECIPHPGCRHGTCSTPWQCLCDEGWGGLYCDQDLNYCTHHSPCKNGATCRNSGPRSYTCTCRPGYTGVDCELELSECDSNPCRNGGSCKDQEDGYHCLCPPGYYGLHCEHSTLSCADSPCFNGGSCRERNQGANYACECPPNFTGSNCE
B5: gajB 1-494 (Bacillus cereus, UniProt J8HQ06); chain MSREQIIKDGGNILVTAGAGSGKTTILVSKIEADLKENKTHYSIAAVTFTNKAAKEIEGRLGYSSRGNFIGTNDGFVESEIIRPFIKDAFGNDYPDNFTAEYFDNQFASYDKGLQVLKYQNILGTYSNPKKNFKFQLALDILKKSLVARQYIFSKYFKIFIDEYQDSDKDMHNLFMYLKDQLKIKLFIVGDPKQSIYIWRGAEPENFNGLIENSTDFNKYHLTSNFRCCQDIQNYSNLFNEETRSLIKEKNEVQNVISIADDMPISDILLKLTEEKQVLNIEAELVILVRRRNQAIEIMKELNEEGFNFIFIPQTPLDRATPNATLLKEVIKYVKNDRYSIYDLAAEIVGNLSSREIKEIQKIINELLVPNINQVLINQVLINLFAKLEITLDTREITAFTEVMMTNEFDIAFDTNEYLHKIFTVHSAKGLEFNQVIITASDYNVHYNRDTNEHYVATTRAKDKLIVIMDNKKYSDYIETLMKELKIKNIIKSI
B6: TIMP2 27-153 (Homo sapiens, UniProt P16035); sequence looked up; chain CSCSPVHPQQAFCNADVVIRAKAVSEKEVDSGNDIYGNPIKRIQYEIKQIKMFKGPEKDIEFIYTAPSSAVCGVSLDVGGKKEYLIAGKAEGDGKMHITLCDFIVPWDTLSTTQKKSLNHRYQMGCE
B7: TNFSF4 51-183 (Homo sapiens, UniProt P23510); sequence looked up; chain QVSHRYPRIQSIKVQFTEYKKEKGFILTSQKEDEIMKVQNNSVIINCDGFYLISLKGYFSQEVNISLHYQKDEEPLFQLKKVRSVNSLMVASLTYKDKVYLNVTTDNTSLDDFHVNGGELILIHQNPGEFCVL
B8: TIMP1 E156V/L152P/L133R/E67W/M66W/L34G (Homo sapiens, UniProt P01033); chain CTCVPPHPQTAFCNSDLVIRAKFVGTPEVNQTTGYQRYEIKMTKMYKGFQALGDAADIRFVYTPAWWSVCGYFHRSHNRSEEFLIAGKLQDGLLHITTCSFVAPWNSLSLAQRRGFTKTYTVGCEECTVFPCRSIPCKLQSGTHCLWTDQLPQGSVKGFQSRHLACLPREPGLCTWQSLRSQIA
B9: Pard6b 1-371 (Mus musculus, UniProt Q9JK83); chain MNRGHRHGASSGCLGTMEVKSKFGAEFRRFSLERSKPGKFEEFYGLLQHVHKIPNVDVLVGYADIHGDLLPINNDDNYHKAVSTANPLLRIFIQKKEEADYSAFGTDTLIRKKNMLSNVLRPDNHRKKPHIVISMPQDFRPVSSIIDVDILPETHRRVRLYKYGTEKPLGFYIRDGSSVRVTPHGLEKVPGIFISRLVPGGLAQSTGLLAVNDEVLEVNGIEVSGKSLDQVTDMMIANSRNLIITVRPANQRNNVVRNSRTSGSSSQSTDNSLLGFPQQVEASFEPEDQDSDEDDIIIEDSGEPQQIPKATPAQSLESLTQIELSFESGQNGFSPPQDTSLVPVPGSLDTELESRAPDQKLLEEDGTIITL
Sequence of UniProt P12314 (whole entry, unmodified, looked up): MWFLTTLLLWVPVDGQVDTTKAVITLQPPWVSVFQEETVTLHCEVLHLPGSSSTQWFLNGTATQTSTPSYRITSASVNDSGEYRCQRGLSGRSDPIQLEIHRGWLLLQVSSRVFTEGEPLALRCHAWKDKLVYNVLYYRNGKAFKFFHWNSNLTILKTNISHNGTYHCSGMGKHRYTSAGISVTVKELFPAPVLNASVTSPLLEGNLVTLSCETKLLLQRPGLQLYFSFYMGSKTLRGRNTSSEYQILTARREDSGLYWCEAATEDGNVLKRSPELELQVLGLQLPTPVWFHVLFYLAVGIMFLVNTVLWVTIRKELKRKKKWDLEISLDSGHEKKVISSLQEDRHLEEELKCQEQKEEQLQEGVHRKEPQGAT
Sequence of UniProt J8H9C1 (whole entry, looked up): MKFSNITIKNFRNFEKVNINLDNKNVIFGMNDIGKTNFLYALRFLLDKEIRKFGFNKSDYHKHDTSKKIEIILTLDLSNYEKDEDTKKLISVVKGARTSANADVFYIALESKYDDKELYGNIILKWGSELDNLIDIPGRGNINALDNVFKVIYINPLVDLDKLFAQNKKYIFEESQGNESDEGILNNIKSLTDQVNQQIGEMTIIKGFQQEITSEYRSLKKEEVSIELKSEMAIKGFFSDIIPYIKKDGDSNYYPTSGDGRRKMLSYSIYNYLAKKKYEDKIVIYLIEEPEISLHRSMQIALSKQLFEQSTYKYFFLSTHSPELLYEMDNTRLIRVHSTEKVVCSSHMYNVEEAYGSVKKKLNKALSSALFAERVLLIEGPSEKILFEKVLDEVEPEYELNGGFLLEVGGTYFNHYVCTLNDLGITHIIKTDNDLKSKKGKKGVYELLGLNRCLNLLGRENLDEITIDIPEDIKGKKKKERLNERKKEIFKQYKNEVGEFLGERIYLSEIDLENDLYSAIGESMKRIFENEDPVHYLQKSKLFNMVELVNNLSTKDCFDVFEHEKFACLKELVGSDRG
Sequence of UniProt Q86Y13 (whole entry, looked up): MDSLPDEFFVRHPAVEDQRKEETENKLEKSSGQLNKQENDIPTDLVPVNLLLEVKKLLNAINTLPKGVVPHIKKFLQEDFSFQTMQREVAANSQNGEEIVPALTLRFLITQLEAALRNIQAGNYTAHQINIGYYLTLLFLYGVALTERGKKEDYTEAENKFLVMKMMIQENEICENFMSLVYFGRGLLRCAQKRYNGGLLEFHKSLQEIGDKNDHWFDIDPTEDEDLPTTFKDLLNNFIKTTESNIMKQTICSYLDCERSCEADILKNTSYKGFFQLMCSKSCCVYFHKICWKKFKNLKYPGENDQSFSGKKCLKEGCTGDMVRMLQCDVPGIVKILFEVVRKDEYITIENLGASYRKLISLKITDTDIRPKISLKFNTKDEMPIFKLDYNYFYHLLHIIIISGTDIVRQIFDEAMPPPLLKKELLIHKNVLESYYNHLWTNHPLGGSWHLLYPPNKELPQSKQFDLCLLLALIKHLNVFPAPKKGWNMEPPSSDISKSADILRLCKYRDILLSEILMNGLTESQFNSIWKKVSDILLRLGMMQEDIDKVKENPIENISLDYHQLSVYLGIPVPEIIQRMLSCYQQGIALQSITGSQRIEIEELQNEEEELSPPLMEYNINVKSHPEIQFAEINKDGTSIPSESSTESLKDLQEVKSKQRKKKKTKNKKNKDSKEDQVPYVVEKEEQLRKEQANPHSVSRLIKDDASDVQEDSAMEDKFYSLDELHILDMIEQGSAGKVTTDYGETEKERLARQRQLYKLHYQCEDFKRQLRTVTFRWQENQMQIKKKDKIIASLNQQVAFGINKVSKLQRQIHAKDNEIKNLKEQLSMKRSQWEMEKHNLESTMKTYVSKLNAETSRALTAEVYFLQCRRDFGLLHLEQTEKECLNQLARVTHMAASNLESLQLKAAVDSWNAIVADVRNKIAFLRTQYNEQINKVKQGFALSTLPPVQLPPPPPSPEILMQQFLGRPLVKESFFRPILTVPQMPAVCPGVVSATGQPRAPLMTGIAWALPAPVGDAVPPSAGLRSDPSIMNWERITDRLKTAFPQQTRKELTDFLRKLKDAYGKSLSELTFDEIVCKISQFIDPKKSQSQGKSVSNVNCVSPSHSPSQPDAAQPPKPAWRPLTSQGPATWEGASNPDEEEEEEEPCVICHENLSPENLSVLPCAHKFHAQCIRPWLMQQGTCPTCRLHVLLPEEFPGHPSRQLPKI
Sequence of UniProt Q9SV55 (whole entry, looked up): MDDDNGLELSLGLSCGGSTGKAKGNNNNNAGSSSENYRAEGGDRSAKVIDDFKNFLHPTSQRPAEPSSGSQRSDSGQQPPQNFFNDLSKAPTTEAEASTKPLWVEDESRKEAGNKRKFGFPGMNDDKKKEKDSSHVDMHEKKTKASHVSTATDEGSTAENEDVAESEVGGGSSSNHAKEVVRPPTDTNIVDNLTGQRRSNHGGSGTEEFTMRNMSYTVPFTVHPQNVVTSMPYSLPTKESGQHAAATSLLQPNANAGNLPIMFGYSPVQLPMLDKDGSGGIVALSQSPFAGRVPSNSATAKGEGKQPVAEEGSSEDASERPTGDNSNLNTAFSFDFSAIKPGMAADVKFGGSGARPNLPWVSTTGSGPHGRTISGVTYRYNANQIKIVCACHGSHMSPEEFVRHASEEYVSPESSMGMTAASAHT
Sequence of UniProt P20700 (whole entry, looked up): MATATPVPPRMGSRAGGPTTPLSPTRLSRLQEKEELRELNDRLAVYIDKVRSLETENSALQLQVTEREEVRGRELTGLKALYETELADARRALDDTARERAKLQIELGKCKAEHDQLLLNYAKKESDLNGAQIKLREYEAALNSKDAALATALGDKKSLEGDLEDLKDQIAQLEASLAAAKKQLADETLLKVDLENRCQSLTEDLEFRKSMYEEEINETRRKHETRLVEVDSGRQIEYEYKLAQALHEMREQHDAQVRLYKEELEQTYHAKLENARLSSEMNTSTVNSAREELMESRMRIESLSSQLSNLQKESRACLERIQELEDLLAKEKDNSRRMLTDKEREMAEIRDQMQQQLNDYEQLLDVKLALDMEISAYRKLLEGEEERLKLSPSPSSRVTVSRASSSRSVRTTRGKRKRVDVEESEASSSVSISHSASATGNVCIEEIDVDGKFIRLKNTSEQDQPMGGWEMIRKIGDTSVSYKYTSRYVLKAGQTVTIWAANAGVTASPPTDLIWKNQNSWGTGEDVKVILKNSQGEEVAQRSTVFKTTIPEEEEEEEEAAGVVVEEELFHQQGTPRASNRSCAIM
Sequence of UniProt Q00341 (whole entry, looked up): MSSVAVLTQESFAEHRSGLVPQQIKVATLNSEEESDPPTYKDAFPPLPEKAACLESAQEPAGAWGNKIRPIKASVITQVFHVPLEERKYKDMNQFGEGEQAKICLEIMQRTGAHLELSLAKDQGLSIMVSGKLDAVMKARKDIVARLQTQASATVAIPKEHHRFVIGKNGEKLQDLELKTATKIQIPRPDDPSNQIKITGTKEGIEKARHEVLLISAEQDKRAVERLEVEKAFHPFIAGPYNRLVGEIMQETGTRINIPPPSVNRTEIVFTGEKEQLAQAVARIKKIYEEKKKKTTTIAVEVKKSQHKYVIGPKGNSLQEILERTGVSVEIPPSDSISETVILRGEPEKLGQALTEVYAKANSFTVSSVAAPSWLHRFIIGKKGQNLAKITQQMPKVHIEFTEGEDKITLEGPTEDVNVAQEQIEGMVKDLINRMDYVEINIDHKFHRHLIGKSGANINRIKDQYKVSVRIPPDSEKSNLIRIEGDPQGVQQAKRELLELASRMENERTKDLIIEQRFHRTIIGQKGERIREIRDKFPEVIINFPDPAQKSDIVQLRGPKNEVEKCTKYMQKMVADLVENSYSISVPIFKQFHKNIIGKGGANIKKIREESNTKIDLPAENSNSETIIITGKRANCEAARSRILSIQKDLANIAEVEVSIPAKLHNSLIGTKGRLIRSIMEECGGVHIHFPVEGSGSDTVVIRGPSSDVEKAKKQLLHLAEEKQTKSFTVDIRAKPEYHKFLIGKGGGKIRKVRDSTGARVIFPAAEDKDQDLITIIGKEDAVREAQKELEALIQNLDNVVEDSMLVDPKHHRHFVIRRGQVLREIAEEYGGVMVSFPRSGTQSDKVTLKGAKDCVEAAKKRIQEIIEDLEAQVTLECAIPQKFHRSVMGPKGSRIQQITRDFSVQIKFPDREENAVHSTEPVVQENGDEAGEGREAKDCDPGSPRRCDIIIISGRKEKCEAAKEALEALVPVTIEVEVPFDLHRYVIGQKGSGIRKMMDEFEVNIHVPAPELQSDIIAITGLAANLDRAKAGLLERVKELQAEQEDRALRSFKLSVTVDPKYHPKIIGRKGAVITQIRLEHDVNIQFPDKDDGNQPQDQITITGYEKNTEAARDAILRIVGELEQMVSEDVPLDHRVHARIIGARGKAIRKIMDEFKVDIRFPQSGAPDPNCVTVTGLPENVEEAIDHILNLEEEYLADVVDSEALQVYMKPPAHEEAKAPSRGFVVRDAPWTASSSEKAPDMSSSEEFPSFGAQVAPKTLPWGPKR

Molecule	partner	test	system	conditions	how to read	quantity	value
B1 (CENPF 1-385)	tubulin alpha/beta paclitaxel-stabilized microtubules (Bos taurus)	co-sedimentation			baseline: Ndc80, higher = weaker affinity	affinity decrease	3 fold
FGG (Homo sapiens, UniProt P02679)	ZGPAT (Homo sapiens, UniProt Q8N5A5)	cross-linking MS		together with: DSSO		cross-linked residues	K299 to K394
ACPAGCMKNWSWPIWCTNK (bicyclic peptide; C-terminal amide/TATA scaffold, three cysteines cyclised)	NECTIN4	fluorescence polarisation	peptide			Ki	> 10000 nM
FGB (Homo sapiens, UniProt P02675)	NIPBL (Homo sapiens, UniProt Q6KC79)	cross-linking MS		together with: DSSO		cross-linked residues	K367 to K2182
HDLBP (Homo sapiens, UniProt Q00341)	DZIP3 (Homo sapiens, UniProt Q86Y13)	cross-linking MS	cells	together with: iqPIR		cross-linked residues	K382 to K1061
JAZ2 fragment (Arabidopsis thaliana)	NINJA (Arabidopsis thaliana, UniProt Q9SV55)	competitor, AlphaScreen or HTRF				IC50	190 nM
SQELHKLQTYPRTNTGSGTP (salmon calcitonin 13-32 (Salmo salar); N-terminal FITC-Ahx/C-terminal amide)	T1, RAMP2/CALCR extracellular domain fusion 43-143 (Homo sapiens)	fluorescence polarisation	peptide			pKD	5.36
LMNA (Homo sapiens, UniProt P02545)	LMNB1 (Homo sapiens, UniProt P20700)	cross-linking MS	cells	together with: iqPIR		cross-linked residues	K144 to K156
bradykinin (UniProt P01042)	BDKRB2 (Homo sapiens, UniProt P30411)	Gq BRET response	BDKRB2 cells			EC50	0.182 nM
alpha-MSH mature (UniProt P01189)	Mc4r (Mus musculus, UniProt P56450)	cAMP production, agonist, BRET EPAC sensor	HEK293	3 min		EC50	11.5 nM
FGA (Homo sapiens, UniProt P02671)	TRIM45 (Homo sapiens, UniProt Q9H8W5)	cross-linking MS		together with: DSSO		cross-linked residues	K463 to K446
CBX3 (Homo sapiens, UniProt Q13185)	SUV39H1 catalytic domain, C-terminal truncation (Homo sapiens)	pull-down		3 µM, together with: chaetocin 0.1 µM	higher = less binding	binding reduction	38%
Mcm2-7, DyLight 650 on Mcm6 N-terminus (Saccharomyces cerevisiae)	ORC CDK-phosphorylated, Orc2 and Orc6 (Saccharomyces cerevisiae)	FRET			baseline: unphosphorylated ORC, higher = shorter lifetime	ORC-Mcm2-7 interaction lifetime shortening	2.5 fold
B2 (CCL3 mature)	CCR5 (Homo sapiens, UniProt P51681)	radioligand binding	HEK-R5	together with: MβCD 5 mM	baseline: untreated control, higher = more binding	remaining binding	20%
ACTA1 (Gallus gallus, UniProt P68139)	MYH1 (Oryctolagus cuniculus, UniProt A0A5F9CQ93)	laser trap		together with: ATP 5 µM		binding event lifetime	29 ± 1 ms
ING1 PHD finger (Arabidopsis thaliana)	H3 residues 1-10, K4me1	ITC				molecule per partner	1.15 ± 0.01
B3	LGR5 (Homo sapiens, UniProt O75473)	cell viability	Fc fusion, 293T-LGR5	5 days		cytotoxic IC50	0.3 nM
EGLN1 fragment	HIF1A NODD peptide 394-411, C-terminal amide (Homo sapiens)	BLI				kon	3000 M⁻¹ s⁻¹
A2M (Homo sapiens, UniProt P01023)	PAK6 (Homo sapiens, UniProt Q9NQU5)	cross-linking MS		together with: DSSO		cross-linked residues	K1133 to K436

Molecule	partner	test	system	conditions	how to read	quantity	value
B4	NOTCH1 full length, on cells (UniProt P46531)	Notch1 reporter activation EC50	CHO-K1	24 h		adsorbed ligand amount	0.009 ng mm^-2
KISPPTPKPRPPRPLPVAPGS (PIK3R1 proline-rich region 1 (Homo sapiens))	HCK 78-138 (Homo sapiens, UniProt P08631)	ITC	peptide			ΔH	-7.41 ± 0.167 kcal/mol
ADCYAP1 PACAP (Homo sapiens)	CALCRL/RAMP1 whole, on cells, myc, HA tags (human)	cAMP accumulation, antagonist	Cos7	off-target control, together with: CGRP		pA2	1.38 µM
SERPINA1 (Homo sapiens, UniProt P01009)	Thrombin mature, plasma-derived (Homo sapiens)	inhibition kinetics, amidolytic activity		together with: heparin 0.1 µM		second-order inhibition rate constant	60 M⁻¹ s⁻¹
H2A/H2B dimer (Xenopus laevis)	ARP5 557-581 L567A/L568A/D571A (Saccharomyces cerevisiae, UniProt P53946)	pull-down			baseline: wild-type, higher = greater reduction	dimer pull-down reduction	4 fold
B5 (gajB 1-494)	GajA 1-578 (Bacillus cereus, UniProt J8H9C1)	cryo-EM				GajB per GajA	1 GajB per GajA
B6 (TIMP2 27-153)	MMP8 100-262 (Homo sapiens, UniProt P22894)	enzyme activity, inhibitor, fluorogenic peptide cleavage assay				Ki	1.17 ± 0.09 nM
ACAFGCMKNWSWPIWCTNK (Bicycle 60 bicyclic peptide; C-terminal amide/TATA scaffold, three cysteines cyclised)	NECTIN4	fluorescence polarisation	peptide			Ki	132 nM
DYNLRB1/DYNLL1/DYNLT1/DYNC1LI2/DYNC1I2/DYNC1H1 dynein-1 complex (Homo sapiens)	NINL/BICD2 chimera NINL CC, BicD2 LIC-BD 1-275, HaloTag, JF646 label	pull-down				Ka	> 1.6e+06 M⁻¹
H2AC18 (Homo sapiens, UniProt Q6FI13)	H2BC9 (Homo sapiens, UniProt Q93079)	cross-linking MS		hits only		interaction screen	cross-linked
Trastuzumab IgG1, CSCS double cysteine mutant (Homo sapiens)	FCGR1A (Homo sapiens, UniProt P12314)	SPR				kon	590000 M⁻¹ s⁻¹
RGSVITSA (Zbtb16 residues 285-292 (Mus musculus))	IRF2BP2 fragment (Homo sapiens)	ITC	peptide			Kd	12400 nM
TCP1 (Homo sapiens, UniProt P17987)	CCT4 (Homo sapiens, UniProt P50991)	cross-linking MS	cells	together with: BDP-NHP		cross-linked residues	K126 to K55
DSG2 (Homo sapiens, UniProt Q14126)	KHSRP (Homo sapiens, UniProt Q92945)	cross-linking MS	cells	together with: iqPIR		cross-linked residues	K849 to K266
B7 (TNFSF4 51-183)	TNFRSF4 29-170 D124A (Homo sapiens, UniProt P43489)	SPR				koff	0.032 s⁻¹
NSE4 (Saccharomyces cerevisiae, UniProt P43124)	SMC6 (Saccharomyces cerevisiae, UniProt Q12749)	cross-linking MS		hits only		interaction screen	cross-linked
ALB (Homo sapiens, UniProt P02768)	ZNF813 (Homo sapiens, UniProt Q6ZN06)	cross-linking MS		together with: DSSO		cross-linked residues	K456 to K166
B8	MMP2 110-452 (Homo sapiens, UniProt P08253)	MMP-2 inhibition, inhibitor, Morrison tight-binding equation	designed binder			Ki	7 nM
B9 (Pard6b 1-371)	LLGL2 13-978, dephosphorylated (Homo sapiens, UniProt Q6P1M3)	BLI				Kd	41 nM

Excerpt of the above:
Molecule	partner	test	system	conditions	how to read	quantity	value
bradykinin (UniProt P01042)	BDKRB2 (Homo sapiens, UniProt P30411)	Gq BRET response	BDKRB2 cells			EC50	0.182 nM
ING1 PHD finger (Arabidopsis thaliana)	H3 residues 1-10, K4me1	ITC				molecule per partner	1.15 ± 0.01
NSE4 (Saccharomyces cerevisiae, UniProt P43124)	SMC6 (Saccharomyces cerevisiae, UniProt Q12749)	cross-linking MS		hits only		interaction screen	cross-linked
B4	NOTCH1 full length, on cells (UniProt P46531)	Notch1 reporter activation EC50	CHO-K1	24 h		adsorbed ligand amount	0.009 ng mm^-2
